Measured values gathered from unrelated publications.
Each line is one published result; not all experiments were run side by side. Several values in a cell are separate wells, animals, samples, runs or records. Numbers after ± are the reported error. Converted amounts (≈) assume the structure as drawn.

Compound | test | test system | conditions | scale | measurement | value
O=C(O)CCCCCCCCCCCCC(=O)O |  | human, plasma | endogenous control diurnal | reference: daily mean concentration | relative peak deviation | 59.8 ± 14.6%
CC(C)(C(=O)N1CCOc2c(C#N)cncc2C1)C(F)F | item: Headache | human | oral, 40 mg, CSF pharmacokinetic cohort |  | subjects with adverse event | 66.7%
Cc1ccc([C@@H]2O[C@H](CO)[C@@H](O)[C@H](O)[C@H]2O)cc1Cc1ccc(-c2ccc(F)cc2)s1 |  | Japanese type 2 diabetes patients | 400 mg, day 16, 24 h urine collection | reference: baseline | urinary potassium excretion change | -1.28 mEq
COc1ncc(-c2nc3c(n2C(C)C)[C@H](c2ccc(Cl)cc2)N(c2cc(Cl)cn(C)c2=O)C3=O)c(OC)n1 |  | human patients, plasma | oral, 4 mg, low-dose arm, cycle 1 day 8 |  | median Tmax | 2 h
CCONC(=O)N1CCC[C@H](C(=O)NCc2nc(-c3ccc(C#N)cc3)cs2)C1 |  | Sprague-Dawley rat, male, plasma | intravenous, 1 mg/kg |  | unbound hepatic CLint | 150 mL/min/kg
Oc1ccc(/C=C/c2cc(O)cc(O)c2)cc1 |  | rat, azoxymethane-injected, blood at sacrifice | 10 mg/kg |  | glycated albumin | 1.9% and 1.8%
O=C(N[C@H](Cc1c[nH]c2ccccc12)C(=O)Nc1ccncc1)c1ccc(N2CCN(c3ccc(F)c(F)c3)CC2)cc1F |  | Swiss Webster mouse, female, plasma | oral, 50 mg/kg, 2 h, 20% HPβCD vehicle |  | concentration | 110 nM
Cc1c(C(=O)O)ccc2c3n(nc12)[C@@H]1[C@H](C3)N(CC2CC2)[C@@]2(C(=O)Nc3cc(Cl)ccc32)[C@H]1c1cccc(Cl)c1F |  | female BALB/c nude mice, SJSA-1 xenograft, plasma | oral, 2 mg/kg once daily, 2 h, mean |  | plasma concentration | 2180 nM
Cc1ccc(C)c(OCCCC(C)(C)C(=O)O)c1 |  | human, plasma | oral, dose not given, day 12 predose, geometric mean |  | trough plasma concentration | 1780 ng/mL
Cc1ccc(C)c(OCCCC(C)(C)C(=O)O)c1 | item: Half-Life | human subjects, plasma | oral, dose not given, added: lopinavir-ritonavir | reference: with over without lopinavir-ritonavir | geometric mean ratio | 1
COc1ccc2c(=O)n(C)c(-c3ccccc3)nc2c1 |  | Sprague-Dawley rat, male, liver | oral, 30 mg/kg, 2 h | reference: liver over plasma | tissue/plasma ratio | 28.6
CCn1cc(C(=O)N2CCOCC2)c(=O)c2cc(NC3Cc4ccccc4C3)cnc21 |  | human female, fed, plasma | oral, 900 mg twice daily, day 7, tablet, arithmetic mean |  | Cmax | 6920 ng/mL
O=C(/C=C/CCc1ccc(O)cc1)/C=C/c1ccc(O)cc1 |  | nude mouse MCF7 xenograft | 10 mg/kg, day 4 |  | body weight | 19.5 ± 1.36 g
CN(C(=O)n1cnc(-c2ccc[n+]([O-])c2)c1)[C@H]1CC[C@H](O)CC1 |  | rat, cortex | oral, 10 mg/kg single dose, 1 h |  | tissue concentration | 9.1 ± 0.5 ng/g
Cc1cc(-c2nccc3c2ccn3CC(=O)Nc2ccc(-c3cnccn3)cn2)ccn1 |  | healthy human volunteers | oral, 20 mg single dose, single ascending dose |  | nervous system TEAEs | 0%
C[C@@H]1CCO[C@H]2Cn3cc(C(=O)NCc4ccc(F)cc4F)c(=O)c(O)c3C(=O)N12 | population PK, post-hoc | children, 20 to <25 kg, plasma | oral, 30 mg dispersible tablet, steady state, geometric mean |  | AUC(0-24) | 68800 ng·h/mL
CC(C)Oc1c(NC(=O)c2ccc(NC(=O)[C@H](CC(N)=O)NC(=O)c3ccc(NC(=O)c4ccc(C#N)cc4)cc3)cc2)ccc(C(=O)N/N=C/c2ccc(C(=O)O)cc2)c1O | absorbance | DMSO | 40 °C, PSS to ground state relaxation |  | thermal half-life | 1.2 h
Cc1cc(-c2nnc(N)nc2-c2ccc(F)cc2)cc(Cl)n1 | item: hypothyroidism | post-IO other solid tumour patients | oral, 100 mg once daily, treatment-related, grade 1 |  | patients with immune-mediated AE | 0%
CCOc1c([C@H](C)n2nc(C)c3c(N)ncnc32)cc(Cl)c(F)c1[C@@H]1CNC(=O)C1 |  | rat plasma | storage, freeze-thaw, autosampler |  | stability | stable

Compound | test | test system | conditions | scale | measurement | value
C[C@H]1[C@H]2N(C(=O)CN(C)N2C(=O)NCc2ccccc2)[C@@H](Cc2ccc(OP(=O)(O)O)cc2)C(=O)N1Cc1cccc2cccnc12 |  | human, plasma | intravenous infusion over 4 h, 280 mg/m2, 24 h after dosing |  | plasma concentration | 0 ng/mL
CC(C)C[C@H](NC(=O)CNC(=O)c1cc(Cl)ccc1Cl)B(O)O | item: Dyspnoea | human newly diagnosed multiple myeloma | oral, dose not given, maintenance, grade 3, onset cycle 17 or later |  | treatment-emergent adverse events | 0%
N#Cc1ccc(C(c2ccc(C#N)cc2)n2cncn2)cc1 |  | human patients, tumour tissue at surgery | 12.5 mg daily |  | tumour concentration | 151 ± 13.4 ng/g
C=CC(=O)NC1CCN(c2ncc3ncnc(Nc4ccc(Oc5ccc6c(c5)ncn6C)c(C)c4)c3n2)CC1 |  | healthy male volunteers, plasma | oral, 60 mg, [14C]-labelled oral solution |  | terminal half-life | 52.9 h
C=CC(=O)N1CCC(c2ccc(C(N)=O)c(-c3ccc(Oc4ccccc4)cc3)n2)CC1 | CTCAE 4.03 | patients with relapsed/refractory MCL | oral, 100 mg twice daily |  | incidence of grade ≥3 TRAEs | 0%
C[C@H](CCC(=O)NCC(=O)O)[C@H]1CC[C@H]2[C@@H]3[C@H](O)C[C@@H]4C[C@H](O)CC[C@]4(C)[C@H]3C[C@H](O)[C@]12C |  | human, plasma | endogenous control diurnal | reference: daily mean concentration | relative peak deviation | 181 ± 19%
COc1cccc(-c2n[nH]c(SCc3ccccn3)n2)c1OC |  | Sprague-Dawley rats, both sexes | oral dietary, 30 mg/kg/day, day 90, 24 h |  | plasma concentration | 400 ng/mL
NC(CO)(CO)CCc1ccc(Sc2cccc(OCc3ccccc3)c2)cc1Cl |  | human, supine | oral, 3 mg, 0 to 312 h, added: cyclosporin 100 mg |  | pulse rate AUEC, geometric mean | 18800 h×bpm
O=[N+]([O-])c1cn2c(n1)OC[C@@H](OCc1ccc(N3CCSCC3)c(F)c1)C2 |  | aqueous buffer | pH 7.4 |  | aqueous solubility | 4.2 µg/mL (≈ 10.6 µM)
Cn1cc(Nc2nccc(-c3ccc4c(c3)CN(C3COC3)CC[C@H]4NC(=O)c3cn(C(C)(C)C)nn3)n2)cn1 |  | human, whole blood | 300 mg twice daily, day 14 | reference: pre-dose baseline | transitional B cell count change | 13.6%
Cn1cc(-c2cn3nccc3c(-c3cnn([C@]4(CC#N)C[C@@H](C#N)C4)c3)n2)cn1 |  | healthy humans, plasma | oral, 10 mg twice daily, day 200, fed |  | average concentration | 168 ng/mL
N#C[C@@]1(c2ccc3c(N)ncnn23)O[C@H](CO)[C@@H](O)[C@H]1O |  | rat plasma | 1-100 µM |  | unbound fraction in plasma | 0.0589
CNCc1ccc(-c2[nH]c3cc(F)cc4c3c2CCNC4=O)cc1 |  | patients | oral, 360 mg twice daily, all grades |  | abdominal distension incidence | 25%
Cc1ccc(Sc2ccccc2N2CCNCC2)c(C)c1 | item: Headache | healthy adult men | oral, 10 mg daily, 12 days |  | participants with TEAE | 0%
O=C1CC[C@H](N2Cc3cc(N4CCN(CC5CCN(c6ccc([C@@H]7c8ccc(O)cc8CC[C@@H]7c7ccccc7)cc6)CC5)CC4)ccc3C2=O)C(=O)N1 |  | human | oral, 200 mg, added: dabigatran etexilate 75 mg |  | participants with TRAE hot flush | 0%
CNC(=O)c1ccc(-c2cnc3ncc(Cc4ccc5ncccc5c4)n3n2)cc1F |  | Japanese patients | oral, 400 mg, any grade |  | blood bilirubin increased dose reduction/interruption | 1%
CCc1cc(C(=O)NC)c2nccc(N3CCc4c(cc(Cn5ccnc5)cc4-c4cn(C)nc4C(F)(F)F)C3=O)c2c1 |  | Sprague Dawley rats | oral, 100 mg/kg once daily, 7 days |  | mean platelet volume | 8.03 ± 0.13 fL
O=c1c(NCCc2cccc(Cl)c2)c(Nc2ccc(Cl)cc2)c1=O |  | rat | ip, 5.6 mg/kg |  | locomotor activity | no effect
O=C1CC[C@H](N2Cc3cc(N4CCN(CC5CCN(c6ccc([C@@H]7c8ccc(O)cc8CC[C@@H]7c7ccccc7)cc6)CC5)CC4)ccc3C2=O)C(=O)N1 | rapid equilibrium dialysis | SD rat hepatocytes | 2.5 µM, 6 h |  | unbound fraction in hepatocytes | 0.14

Compound | test | test system | conditions | scale | measurement | value
CCO[C@H]1CCN(Cc2c(OC)cc(C)c3[nH]ccc23)[C@H](c2ccc(C(=O)O)cc2)C1 |  | PNH patients, active haemolysis | oral, 100 mg, 8 weeks, treatment |  | incidence of abdominal distension | 0%
COc1cccc(OC)c1-c1cc(C(=O)NC2(C(=O)O)C3CC4CC(C3)CC2C4)nn1-c1ccc(C(=O)N(C)CCCN(C)CCCN(C)C(=O)CN2CCN(CC(=O)[O-])CCN(CC(=O)[O-])CCN(CC(=O)[O-])CC2)cc1C(C)C.[177Lu+3] (centres unmarked) |  | mouse, HT-29 xenograft, spleen | 72 h post injection |  | tissue uptake | 0.15 %ID/g
CCN1CCN(Cc2ccc(NC(=O)c3ccc(C)c(NC(=O)c4cncc(-c5cccs5)c4)c3)cc2C(F)(F)F)CC1 |  | C57BL/6 mice, epithelial lining fluid | intraperitoneal, 10 mg/kg |  | dose-normalised AUC | 0.45 kg·µg·h/mL/mg
C=CC(=O)Nc1cc(Nc2nccc(-c3cn(C)c4ccccc34)n2)c(OC)cc1N(C)CCN(C)C | storage stability | human dried blood spots | 72 h, -80 °C, high QC level |  | recovery | 99.9%
O=C(c1cccnc1-c1ccncc1)N1CCC(O)(Cc2ccccc2)CC1 |  | healthy Japanese adults, plasma | oral, 100 mg twice daily, day 7 |  | terminal half-life | 3.63 h
NCCONC(=O)[C@@H]1CC[C@@H]2CN1C(=O)N2OS(=O)(=O)O |  | healthy Chinese male subjects | intravenous, 1 g |  | number of serious TRAE events | 0
Cc1cc(NC2CCN(C(=O)OC3CCN(C(=O)/C=C/CN(C)C)C3)CC2)n2ncc(C(C)C)c2n1 (centres unmarked) | Phase I dose escalation CTCAE v4.0, item: maculo-papular rash | patients with advanced solid tumours | dose not given, TIW dosing any grade |  | patients with adverse event | 0%
COc1cc(N2CCC3(CCN(C)CC3)CC2)ccc1Nc1ncc(Cl)c(Nc2ccccc2P(C)(C)=O)n1 | population PK model | human | oral, bootstrap median |  | V2/F | 296 L
CCN1/C(=C/C(C)=O)Sc2ccc(F)cc21 |  | cynomolgus monkey | oral, 10 mg/kg, 1 h post-dose | reference: pre-dose | mean blood pressure change | 102 ± 8.1%
CC(C)[C@H](C(=O)Nc1ccc(C(=O)NO)cc1)c1ccccc1 |  | whole blood | 10.0 ng/mL, 0 h, 4 °C, stability on ice |  | measured concentration | 10.1 ng/mL
CN1CC[C@@H](NC(=O)Nc2ccc(C#N)cc2)C[C@@H]1c1nc2ccccc2[nH]1 | linear mixed-effects model | healthy volunteers, plasma | oral | reference: placebo | ΔΔQTcF concentration slope | 0.005 ms per ng/mL
[18F]c1ccc(-c2ccc3c(c2)[nH]c2ccncc23)cn1 | microPET/CT imaging | B6SJL mouse, normal, heart | intravenous, 10 min |  | SUV | 0.728 ± 0.19
O=C(Nc1nc2cccc(-c3ccc(CN4CCS(=O)(=O)CC4)cc3)n2n1)C1CC1 | item: general and administration-site disorders | rheumatoid arthritis patients | oral, 75 mg once daily, 4 weeks, any relatedness |  | treatment-emergent adverse events | 4.5%
COc1ccc([C@@H](O)c2cc(-c3ncnc4cc(N5CCOCC5)ccc34)c(F)cc2Cl)nn1 |  | locally advanced rectal cancer patients | 100 mg, added: capecitabine and radiotherapy |  | drug-related lymphopenia incidence | 17%
Cc1c(-c2ccc(N3CCc4cccc(C(=O)Nc5nc6ccccc6s5)c4C3)nc2C(=O)O)cnn1CC12CC3(C)CC(C)(C1)CC(OCCNCC[C@H](O)CO)(C3)C2 |  | beagle dog, male, anaesthetised | intravenous infusion, 0.3 mg/kg/min, 120 min | reference: vehicle | mean arterial pressure change | -36%
Nc1ncn([C@H]2C[C@H](O)[C@@H](CO)O2)c(=O)n1 |  | mouse plasma | 1.2 ng/mL, 3 months, -80 °C, long-term stability, no THU |  | mean deviation from nominal | 12.9%
C[C@@H](NC(=O)N1C(=O)[C@H](Cc2ccnc(N)c2)[C@H]1C(=O)O)C1CCCCC1 | UPLC-MS/MS | healthy adult Chinese volunteers, plasma | continuous intravenous infusion, 1.5 mg/kg/h, day 6 of 5-day infusion, mean |  | elimination rate constant | 0.000138 s⁻¹
O=C(O)CCC(=O)O.[2H]C([2H])([2H])Oc1cc(C)c2[nH]ccc2c1CN1CC[C@@H](C2CC2)C[C@H]1c1ccc(C(=O)O)cc1 | multiple ascending dose | healthy Chinese subjects | 125 mg twice daily |  | subjects with elevated triglycerides TEAE | 25%

A few entries again:
Compound | test | test system | conditions | scale | measurement | value
Cc1cc(NC2CCN(C(=O)OC3CCN(C(=O)/C=C/CN(C)C)C3)CC2)n2ncc(C(C)C)c2n1 (centres unmarked) | Phase I dose escalation CTCAE v4.0, item: maculo-papular rash | patients with advanced solid tumours | dose not given, TIW dosing any grade |  | patients with adverse event | 0%
O=C(O)CCCCCCCCCCCCC(=O)O |  | human, plasma | endogenous control diurnal | reference: daily mean concentration | relative peak deviation | 59.8 ± 14.6%
O=C1CC[C@H](N2Cc3cc(N4CCN(CC5CCN(c6ccc([C@@H]7c8ccc(O)cc8CC[C@@H]7c7ccccc7)cc6)CC5)CC4)ccc3C2=O)C(=O)N1 |  | human | oral, 200 mg, added: dabigatran etexilate 75 mg |  | participants with TRAE hot flush | 0%
O=C(Nc1nc2cccc(-c3ccc(CN4CCS(=O)(=O)CC4)cc3)n2n1)C1CC1 | item: general and administration-site disorders | rheumatoid arthritis patients | oral, 75 mg once daily, 4 weeks, any relatedness |  | treatment-emergent adverse events | 4.5%
CN(C(=O)n1cnc(-c2ccc[n+]([O-])c2)c1)[C@H]1CC[C@H](O)CC1 |  | rat, cortex | oral, 10 mg/kg single dose, 1 h |  | tissue concentration | 9.1 ± 0.5 ng/g
